Published values from different studies.
“And” joins repeats or separate records; there may be more than shown.
Target: Glucocorticoid receptor (NR3C1, Homo sapiens, UniProt P04150)

Compound	assay	system	conditions	how to read	endpoint	result
CN[C@@H]1[C@H](O)[C@H](NC)[C@H]2O[C@]3(O)[C@H](O[C@@H]2[C@H]1O)O[C@H](C)C[C@H]3NC(=O)Cc1cc(Cl)ccn1	ligand displacement, radioligand		10 µM		inhibition	-13%
N[C@H](C(=O)N1CCCC1)C1CCN(c2nccc3c(-c4ncc(Cl)cc4Cl)cccc23)CC1	ligand displacement, radioligand		10 µM		inhibition	-8%
C[C@H](NCc1ccc(-c2ccc(C(F)(F)F)cc2)cc1)C(N)=O	radioligand binding, SafetyScreen panel		1 µM, with: 5.0 nM [3H]Dexamethasone		inhibition	7%
COc1ccc(F)cc1S(=O)(=O)Nc1cnc2c(c1)C(=O)NCCO2	ligand displacement, radioligand		10 µM		inhibition	-6%
O=C(O)c1ccc(-c2nc(-c3ccccc3Cl)c3sccn23)cc1	radioligand binding, safety screen panel		10 µM	reference: control	specific binding	96.1% and 94%
CS(C)(=O)=Nc1ccc(-c2ccc(-c3nc4cc(O[C@@H]5CO[C@H]6[C@@H]5OC[C@H]6O)[nH]c4cc3F)cc2)cc1	ligand displacement, radioligand		10 µM		inhibition	22%
Cc1cc(Nc2nc(C[C@@]3(C(=O)O)CCN(Cc4cccc(Cl)c4F)[C@H](C)C3)cc(C)c2F)[nH]n1	agonist		10 µM		activation	-3.65%
CCc1nnc(-c2c(OC)cc(-c3cnc4cc(-c5cnn(C)c5)ccn34)cc2OC)o1	agonist radioligand, radioligand binding		10 µM, SafetyScreen44 GR mean	lower = stronger displacement	remaining binding	103%
Cc1ccc2c(n1)c(-c1cccc(S(C)(=O)=O)c1)c(C)n2C/C(F)=C/CN	ligand displacement, radioligand		10 µM		inhibition	9%
CCOC(=O)[C@](CC)(CCCSCCOCCOCCNC(=O)c1ccc(-c2c3ccc(=N)c(S(=O)(=O)O)c-3oc3c(S(=O)(=O)O)c(N)ccc23)c(C(=O)O)c1)NC(=O)c1ccc(C2CC2)c(Cc2ccc(F)cc2)n1	ligand displacement, radioligand		10 µM		inhibition	33%
CCN(CC)CCOc1ccc(-c2nnn(Cc3ccc(OC)cc3)c2N)cc1	radioligand binding	IM-9	10 µM, with: 10000 nM radioligand		inhibition	2.68%
C/C(=N\OCCCN1CCCCC1)c1ccc(C(F)(F)F)cc1	reporter gene, antagonist, luciferase reporter		10 µM		inhibition	-4.98%
